Published values of several laboratories.
Parts stem from different laboratories: compare values within a part only. “And” joins repeats or separate records; there may be more than shown.

Block 1 — cell line: HEK-293T; read-out: pseudovirus infection; technique: FDA-approved drug library screen; organism: VSV pseudotyped with SARS-CoV-2 spike; tested at: 10 µM; time: 16 h; baseline: vehicle-treated; quantity: GFP-positive cells
COC(=O)C1=C(C)NC(C)=C(C(=O)OCC(C)C)C1c1ccccc1[N+](=O)[O-] (stereo not shown): 67.4%
COc1cc(CNC(=O)CCCC/C=C/C(C)C)ccc1O: 100%
C[C@H](N)[C@H](O)c1cccc(O)c1: 113%
COc1ccc([C@@H]2Sc3ccccc3N(CCN(C)C)C(=O)[C@@H]2OC(C)=O)cc1: 85.1%

Block 2 — technique: RNA Bind-n-Seq; molecule type: RNA; medium: in vitro; tested at: 100 nM; baseline: input RNA pool; direction: higher = stronger binding; quantity: bound/input enrichment
Target: RING finger protein unkempt homolog, zinc fingers 1-6, SBP tag (UNK, Homo sapiens, UniProt Q9C0B0, residues 30-357)
Sequence of UniProt Q9C0B0 (30-357, looked up): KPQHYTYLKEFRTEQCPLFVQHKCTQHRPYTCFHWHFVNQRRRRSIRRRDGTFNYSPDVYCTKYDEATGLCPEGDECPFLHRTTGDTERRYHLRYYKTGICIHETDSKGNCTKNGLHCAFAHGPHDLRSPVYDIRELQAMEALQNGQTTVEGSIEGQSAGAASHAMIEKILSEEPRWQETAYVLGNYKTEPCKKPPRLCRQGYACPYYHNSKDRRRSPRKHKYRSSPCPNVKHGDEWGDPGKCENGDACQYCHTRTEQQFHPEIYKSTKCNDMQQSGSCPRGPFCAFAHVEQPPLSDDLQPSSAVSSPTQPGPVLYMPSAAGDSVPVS
Notes: RNA with constant flanks, vertebrate orthologous sites, ends assumed
All sequences stand within: GGGAGUUCUACAGUCCGACGAUC … CAACAGAGGAUUGAGCAUCA
AAAAAACCCCGAUUUUAGAUAUCUAGGCUUUCAUUCCAGUUGUUUUUGUCUUUUCUUGUUUAGAUACCACUUUUAAAUUCUUGCAUUUUAGUAAGAAAGCUACCUUUUUAUGGAUGUUAG: 1.3 ratio
UUUUAAAGUCAUUUUUCACAUUUCCUGUAAAUAGUGGAUAAUCAUUUUUAUUUUCUUUUUAAGUGCUGUUUUAACAUGUGGAUAGAUCAUAAAUGUACUUGCUGAAUUCAUUCUUUUUUU: 0.374 ratio
GUUAGGUCAUGACCCUUAUAGGUUAGGUCAUGAUGCCUACAGGUUAGGGCAAGACCCUUAUAGAUUAGGCCAUGAUCCCUACAGACUAACUCCUGAUCCCUAUAGGAUGUCACCUAGACC: 0.429 ratio
AAAUUCCCGCAUUGUCACUGAGAACCACCAAAUCUGACUUUUACAUUUGGUCUCAGAAUUUAGGUUCCUGCCCUGUUGGUUUUUUUUUUUUUUUUUUAAACAGUUUUCAAAAGUUCUUAA: 1.43 ratio
GUCCUGAGUUUUUAAAAGUCCUUAUAUUUUUCUUUUUUCCUUUUUUUGGGGGGGGGUGGGGGAUAUGUAGUAAUAUUAGCAUAAAGAUUUUAAUUUGGGCAACUUUGAUUCCUAAGAGAA: 4.87 ratio
GGGCAGCCGGUGGGGGAAUUCCCUGCCUUGGCCUUGCCUCCCCUUCCUGCUACCUGCCCCUAGUUUGUUUUUUUUUUUUAAACCACCAUGUGAUUAAGGUCGGUGUUGCCUCCCCCGACC: 3.06 ratio
UCUAGGCUUCCACAUAGGGUCAGCCUCAAGACAUAGGAUUUAUGAUAAAUGUAUCCAGCUAAGUUAAACUUAAUAUUUGUAUUAGCCUAUAAAUAAAAAGGGCAUCUUUUGUAUUAAAAU: 0.548 ratio
UUUCUUCUCUUUUUCUUUGUUUCCCUCUUUUCUUUUUUUUUCCUUUUCUUUCUUUUUUUGUAGUUGUUGUUACCCACGCCAUUUUACGUCUCCUUCACUGAAGGGCUAGAGUUUUAACUU: 3.36 ratio

Block 3 — technique: competition protein-binding microarray; molecule type: double-stranded DNA, one strand shown; medium: in vitro; tested at: 2 µM; together with: Cbf1 competitor, 0.05 µM; direction: higher = stronger binding; quantity: fluorescence intensity; all sequences stand within: … GTCTTGATTCGCTTGACGCTGCTG
Target: Phosphate system positive regulatory protein PHO4, full length, GST-tagged (PHO4, Saccharomyces cerevisiae, UniProt P07270, residues 1-312)
Notes: whole 60-bp probe, lowest competitor level
Construct (chain): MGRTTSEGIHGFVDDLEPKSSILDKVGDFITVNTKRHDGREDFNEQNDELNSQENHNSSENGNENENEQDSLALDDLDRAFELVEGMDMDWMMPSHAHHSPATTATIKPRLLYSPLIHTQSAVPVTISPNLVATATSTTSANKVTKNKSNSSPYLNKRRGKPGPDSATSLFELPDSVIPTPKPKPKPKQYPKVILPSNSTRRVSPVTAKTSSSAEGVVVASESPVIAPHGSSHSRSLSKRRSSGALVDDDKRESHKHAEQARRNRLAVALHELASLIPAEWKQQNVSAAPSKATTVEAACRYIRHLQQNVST
CGTCCTAGCGATTGACTAGTGGGTGCCATGAGGAAG: 5920 a.u.
CTAACGAAGGTTTGCAAGGTGGGTGACAAGCCAAGT: 4170 a.u.
GGCTCTGCCGAGTTCCAGGTGACGCTGGTGGTACGA: 2950 a.u.
CGGCCTGCAATGTTCCACGTGGACCACTCATCAAAC: 18000 a.u.
AAAACTTACTTCCGTCACATGCAAGATGTAGACCCA: 8300 a.u.
GCACTTTCAGGTACCAGCGTGCTAAAGCCATTTTCG: 8150 a.u.
CCGTCAGATAATATATCCCCGTATAGGTTTGGTGCC: 3880 a.u.
AAATGAAGCCTCCTCCACGTTTATTGCCTTATTTAA: 13500 a.u.

Block 4 — action: inhibitor; tested at: 20 µM; quantity: inhibition
Target: Replicase polyprotein 1ab, nsp13 helicase (rep, Severe acute respiratory syndrome coronavirus 2, UniProt P0DTD1)
CNC(=O)O[C@H]1COc2ccc(N3CCN(C4COC4)CC3)cc2[C@@H]1NC(=O)c1ccc(F)cc1: 2.83%
CCCCCCCCCCCCCCCCn1cc[n+](Cc2ccccc2)c1C: 36.6%
CC[C@@]1([C@H]2O[C@H]([C@H]3O[C@@](O)(CO)[C@H](C)C[C@@H]3C)C[C@H]2C)CC[C@H]([C@@]2(C)CC[C@]3(C[C@H](O)[C@@H](C)[C@@H]([C@H](C)[C@H](OC)[C@@H](C)C(=O)O)O3)O2)O1: 8%
O=P(O)(NCCCl)NCCCl: 5.62%
O=c1[nH]nc(Sc2ncc([N+](=O)[O-])s2)n1-c1ccc2c(c1)OCCO2: 96.8%
Clc1cccc(N2CCNCC2)c1: 6.43%
O=C(Nc1ccc([N+](=O)[O-])cc1Cl)c1cc(Cl)ccc1O: 10.3%
CC1(C)O[C@@H]2[C@@H](CO[C@@]3(COS(N)(=O)=O)OC(C)(C)O[C@@H]23)O1: 4.46%
O=[N+]([O-])/N=C1\NCCN1Cc1ccc(Cl)nc1: -6.08%
CSc1nc2cc(Cl)c(Oc3cccc(Cl)c3Cl)cc2[nH]1: 6.2%
CC(=O)O[C@H]1C[C@@]2(C)[C@@H](C[C@@H](O)[C@H]3[C@@]4(C)CC[C@@H](O)[C@@H](C)[C@@H]4CC[C@@]32C)/C1=C(\CCC=C(C)C)C(=O)O: 6.36%
C[C@H]1Oc2cc(cnc2N)-c2c(nn(C)c2C#N)CN(C)C(=O)c2ccc(F)cc21: 2.37% and -1.93%
CC1(C)CNc2cc(NC(=O)c3cccnc3NCc3ccncc3)ccc21: -2.13%
C=CC(=O)Nc1cc(Nc2nccc(-c3c[nH]c4ccccc34)n2)c(OC)cc1N(C)CCN(C)C: 9.92%
O=C(O)[C@@H]1C[C@@H](O)CN1: 1.83%
CC(=O)N[C@@H](CCC(N)=O)C(=O)O: -22.7%
CC(C)(C)c1ccc(S(=O)(=O)NCc2ccc(C(=O)Nc3cccnc3)cc2)cc1: 13.8%
CCNCCS(=O)(=O)NC[C@@]1(c2ccccc2)SC(NC(=O)C(C)(C)C)=NN1C(=O)C(C)(C)C: 2.01%
COc1ccccc1OCC(O)COC(N)=O (stereo not shown): 2.78%
CCNC(=O)c1noc(-c2cc(C(C)C)c(O)cc2O)c1-c1ccc(CN2CCOCC2)cc1: 10.4%
CN[C@H]1C(=O)N[C@@H]2Cc3ccc(cc3)Oc3cc4cc(c3O[C@@H]3O[C@H](C(=O)O)[C@@H](O)[C@H](O)[C@H]3NC(=O)CCCCCCCCC(C)C)Oc3ccc(cc3Cl)[C@@H](O)[C@@H]3NC(=O)[C@H](NC(=O)[C@@H]4NC(=O)[C@@H](NC2=O)c2cc(cc(O)c2Cl)Oc2cc1ccc2O)c1ccc(O)c(c1)-c1c(O[C@H]2O[C@H](CO)[C@@H](O)[C@H](O)[C@@H]2O)cc(O)cc1[C@@H](C(=O)NCCCN(C)C)NC3=O: 19%
Cc1nc2ccc(NC(=O)Nc3ccnc4cccnc34)cc2o1: 1.43%
COc1ccc(CCO[C@@H]2CCCC[C@H]2N2CC[C@@H](O)C2)cc1OC: 5.24%
CC(C(=O)O)c1ccc(-c2ccccc2)c(F)c1 (stereo not shown): 6.46%

Block 5 — technique: RNAcompete; molecule type: RNA; medium: in vitro; tested at: 20 nM; notes: 7-mer, probes averaged, single round; baseline: mean of 7-mers; direction: higher = stronger binding; quantity: 7-mer Z-score
Target: PABPC1L2, full length, GST fusion (mouse, UniProt A0ABA7IW68)
Construct (chain): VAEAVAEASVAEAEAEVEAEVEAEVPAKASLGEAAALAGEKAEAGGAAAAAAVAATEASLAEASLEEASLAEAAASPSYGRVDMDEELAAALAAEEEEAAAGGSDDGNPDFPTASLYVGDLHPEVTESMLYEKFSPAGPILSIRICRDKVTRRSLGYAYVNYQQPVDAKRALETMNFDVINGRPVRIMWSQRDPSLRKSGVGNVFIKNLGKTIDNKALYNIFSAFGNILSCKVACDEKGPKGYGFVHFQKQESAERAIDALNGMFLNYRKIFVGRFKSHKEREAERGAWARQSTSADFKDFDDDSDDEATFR
UCUUGCU: -0.545
UAUGCAU: -0.197
UUGGAGC: -0.135
UACUGGC: -0.05
UUGCGUG: -0.302
GGAUUAG: -0.0301
CUUCCCU: -0.528
ACCAACA: 0.095

Block 6 — read-out: enzyme activity; action: inhibitor; tested at: 20 µM; notes: primary screen; quantity: inhibition
Target: Replicase polyprotein 1ab, main protease (rep, Severe acute respiratory syndrome coronavirus 2, UniProt P0DTD1)
C[n+]1ccc(/C=C/c2c[nH]c3ccccc23)cc1: 27.2%
COC(=O)CC[C@H](NC(=O)[C@H](CC(=O)OC)NC(=O)OCc1ccccc1)C(=O)N[C@H](C(=O)N[C@@H](CC(=O)OC)C(=O)CF)C(C)C: 100%
CC(=O)N[C@H](Cc1ccc2ccccc2c1)C(=O)N[C@H](Cc1ccc(Cl)cc1)C(=O)N[C@H](Cc1cccnc1)C(=O)N[C@@H](CO)C(=O)N[C@@H](Cc1ccc(O)cc1)C(=O)N[C@H](CCCNC(N)=O)C(=O)N[C@@H](CC(C)C)C(=O)N[C@@H](CCCNC(=N)N)C(=O)N1CCC[C@H]1C(=O)N[C@H](C)C(N)=O: 28.3%

Excerpt of the above (block 6):
COC(=O)CC[C@H](NC(=O)[C@H](CC(=O)OC)NC(=O)OCc1ccccc1)C(=O)N[C@H](C(=O)N[C@@H](CC(=O)OC)C(=O)CF)C(C)C: 100%
CC(=O)N[C@H](Cc1ccc2ccccc2c1)C(=O)N[C@H](Cc1ccc(Cl)cc1)C(=O)N[C@H](Cc1cccnc1)C(=O)N[C@@H](CO)C(=O)N[C@@H](Cc1ccc(O)cc1)C(=O)N[C@H](CCCNC(N)=O)C(=O)N[C@@H](CC(C)C)C(=O)N[C@@H](CCCNC(=N)N)C(=O)N1CCC[C@H]1C(=O)N[C@H](C)C(N)=O: 28.3%
C[n+]1ccc(/C=C/c2c[nH]c3ccccc23)cc1: 27.2%
